Measurements pooled from the literature.
± marks the error that the study gave.
UniProt P97612, sequence (whole entry, looked up): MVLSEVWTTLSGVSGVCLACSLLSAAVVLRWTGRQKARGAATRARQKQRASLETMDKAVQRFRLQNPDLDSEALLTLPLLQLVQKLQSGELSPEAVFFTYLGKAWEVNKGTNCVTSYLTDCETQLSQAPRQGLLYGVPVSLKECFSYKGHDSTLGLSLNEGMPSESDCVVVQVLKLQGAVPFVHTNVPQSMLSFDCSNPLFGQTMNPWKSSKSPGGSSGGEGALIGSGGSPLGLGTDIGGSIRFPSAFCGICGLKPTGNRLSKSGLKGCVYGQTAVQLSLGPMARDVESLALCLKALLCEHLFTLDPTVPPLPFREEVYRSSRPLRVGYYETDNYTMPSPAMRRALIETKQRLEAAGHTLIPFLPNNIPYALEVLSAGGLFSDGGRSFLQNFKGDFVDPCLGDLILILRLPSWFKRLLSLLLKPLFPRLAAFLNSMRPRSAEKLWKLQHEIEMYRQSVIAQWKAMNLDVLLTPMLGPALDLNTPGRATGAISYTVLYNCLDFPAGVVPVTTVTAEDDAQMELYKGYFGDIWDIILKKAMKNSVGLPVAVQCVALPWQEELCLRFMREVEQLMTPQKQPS
UniProt O15218, sequence (whole entry, looked up): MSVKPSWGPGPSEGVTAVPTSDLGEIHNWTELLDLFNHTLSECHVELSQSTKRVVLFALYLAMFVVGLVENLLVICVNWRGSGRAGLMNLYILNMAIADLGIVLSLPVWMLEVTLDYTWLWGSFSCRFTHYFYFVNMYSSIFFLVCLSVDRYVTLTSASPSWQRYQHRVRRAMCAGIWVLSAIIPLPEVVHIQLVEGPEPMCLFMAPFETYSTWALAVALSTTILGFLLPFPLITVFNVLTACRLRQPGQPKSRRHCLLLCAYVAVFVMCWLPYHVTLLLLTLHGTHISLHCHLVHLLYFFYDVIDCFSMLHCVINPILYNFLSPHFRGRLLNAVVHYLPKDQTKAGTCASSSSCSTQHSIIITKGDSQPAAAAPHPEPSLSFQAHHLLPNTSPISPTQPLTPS
UniProt Q92918, sequence (whole entry, looked up): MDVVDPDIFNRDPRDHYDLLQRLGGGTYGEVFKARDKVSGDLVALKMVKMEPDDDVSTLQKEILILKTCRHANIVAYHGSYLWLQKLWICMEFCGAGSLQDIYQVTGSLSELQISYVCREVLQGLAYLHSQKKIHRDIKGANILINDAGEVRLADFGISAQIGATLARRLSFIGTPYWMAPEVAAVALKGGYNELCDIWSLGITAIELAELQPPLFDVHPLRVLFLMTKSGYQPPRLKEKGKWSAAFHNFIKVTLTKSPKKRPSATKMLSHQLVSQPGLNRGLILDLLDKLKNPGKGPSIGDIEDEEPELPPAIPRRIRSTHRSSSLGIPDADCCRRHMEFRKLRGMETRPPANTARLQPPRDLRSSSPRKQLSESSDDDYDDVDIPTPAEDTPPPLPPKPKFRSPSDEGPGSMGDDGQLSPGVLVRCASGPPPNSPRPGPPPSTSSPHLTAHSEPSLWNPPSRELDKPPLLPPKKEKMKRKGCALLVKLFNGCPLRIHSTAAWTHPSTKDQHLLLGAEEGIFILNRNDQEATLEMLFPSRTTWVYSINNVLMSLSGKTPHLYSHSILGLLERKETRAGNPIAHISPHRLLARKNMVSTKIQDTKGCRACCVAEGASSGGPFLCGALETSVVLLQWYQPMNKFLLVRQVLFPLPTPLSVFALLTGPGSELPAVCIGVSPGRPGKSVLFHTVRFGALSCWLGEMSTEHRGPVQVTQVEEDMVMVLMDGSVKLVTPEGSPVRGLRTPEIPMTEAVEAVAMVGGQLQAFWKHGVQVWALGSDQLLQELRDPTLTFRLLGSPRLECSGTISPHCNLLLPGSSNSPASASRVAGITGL
UniProt Q13557, sequence (whole entry, looked up): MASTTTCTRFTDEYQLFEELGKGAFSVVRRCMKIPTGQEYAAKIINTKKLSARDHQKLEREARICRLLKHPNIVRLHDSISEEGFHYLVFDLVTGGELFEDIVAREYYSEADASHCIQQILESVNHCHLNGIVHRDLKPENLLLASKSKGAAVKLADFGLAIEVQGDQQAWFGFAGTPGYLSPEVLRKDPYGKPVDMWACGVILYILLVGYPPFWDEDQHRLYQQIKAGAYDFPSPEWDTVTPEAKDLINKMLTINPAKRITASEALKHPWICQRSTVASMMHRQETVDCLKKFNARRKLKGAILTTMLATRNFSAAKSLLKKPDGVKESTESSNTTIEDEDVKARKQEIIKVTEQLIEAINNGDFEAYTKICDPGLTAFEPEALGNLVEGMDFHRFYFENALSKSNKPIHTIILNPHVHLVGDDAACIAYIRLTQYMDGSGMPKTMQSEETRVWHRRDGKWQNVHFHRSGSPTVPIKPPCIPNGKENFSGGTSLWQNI
UniProt Q9BXA5, sequence (whole entry, looked up): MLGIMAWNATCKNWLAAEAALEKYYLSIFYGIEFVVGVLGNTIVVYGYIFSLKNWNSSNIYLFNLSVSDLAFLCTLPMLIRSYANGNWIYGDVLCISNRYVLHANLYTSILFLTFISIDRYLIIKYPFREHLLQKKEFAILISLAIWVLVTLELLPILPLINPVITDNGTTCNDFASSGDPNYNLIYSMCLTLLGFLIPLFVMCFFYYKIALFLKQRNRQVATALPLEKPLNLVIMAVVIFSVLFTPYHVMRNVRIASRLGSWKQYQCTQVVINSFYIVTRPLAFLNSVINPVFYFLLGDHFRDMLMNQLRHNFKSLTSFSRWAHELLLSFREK
UniProt P31323, sequence (whole entry, looked up): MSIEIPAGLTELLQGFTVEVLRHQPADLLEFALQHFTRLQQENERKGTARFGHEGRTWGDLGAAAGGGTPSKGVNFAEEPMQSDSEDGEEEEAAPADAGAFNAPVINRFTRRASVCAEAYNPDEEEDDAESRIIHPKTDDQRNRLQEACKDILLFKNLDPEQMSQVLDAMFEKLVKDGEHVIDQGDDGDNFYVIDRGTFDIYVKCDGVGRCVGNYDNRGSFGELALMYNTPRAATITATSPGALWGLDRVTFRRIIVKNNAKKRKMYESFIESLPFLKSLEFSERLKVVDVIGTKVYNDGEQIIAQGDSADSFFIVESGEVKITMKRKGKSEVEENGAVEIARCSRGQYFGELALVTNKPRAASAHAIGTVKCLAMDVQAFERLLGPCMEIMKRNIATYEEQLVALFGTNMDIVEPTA
UniProt Q02779, sequence (whole entry, looked up): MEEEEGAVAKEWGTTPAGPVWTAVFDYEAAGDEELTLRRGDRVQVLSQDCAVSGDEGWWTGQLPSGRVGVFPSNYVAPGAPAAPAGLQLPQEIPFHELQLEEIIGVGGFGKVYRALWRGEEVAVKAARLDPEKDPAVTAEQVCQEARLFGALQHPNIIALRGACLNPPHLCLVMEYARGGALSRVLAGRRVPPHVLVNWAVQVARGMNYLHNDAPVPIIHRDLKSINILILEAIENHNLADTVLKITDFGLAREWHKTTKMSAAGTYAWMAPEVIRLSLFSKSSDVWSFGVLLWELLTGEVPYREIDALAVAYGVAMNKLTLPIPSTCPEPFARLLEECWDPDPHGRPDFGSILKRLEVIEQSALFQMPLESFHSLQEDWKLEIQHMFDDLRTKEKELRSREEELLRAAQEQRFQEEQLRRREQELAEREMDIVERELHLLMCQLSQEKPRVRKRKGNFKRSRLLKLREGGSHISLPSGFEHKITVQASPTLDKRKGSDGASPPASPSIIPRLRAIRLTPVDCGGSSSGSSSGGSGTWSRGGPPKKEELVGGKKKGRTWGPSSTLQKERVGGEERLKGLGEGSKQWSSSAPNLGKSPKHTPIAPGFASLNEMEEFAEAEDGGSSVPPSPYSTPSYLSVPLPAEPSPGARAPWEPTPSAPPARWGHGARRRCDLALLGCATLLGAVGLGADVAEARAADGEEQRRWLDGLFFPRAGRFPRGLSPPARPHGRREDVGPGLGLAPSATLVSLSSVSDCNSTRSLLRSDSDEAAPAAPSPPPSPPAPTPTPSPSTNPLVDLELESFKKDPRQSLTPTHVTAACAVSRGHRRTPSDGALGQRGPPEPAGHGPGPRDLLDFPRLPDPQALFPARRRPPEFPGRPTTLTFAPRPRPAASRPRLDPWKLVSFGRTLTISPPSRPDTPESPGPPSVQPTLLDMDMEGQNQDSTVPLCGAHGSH

Structure (SMILES) = O=C(Nc1cnccc1Cl)N1CCN(Cc2ccc3c(c2)OC(F)(F)O3)CC1; target or system = Faah (Rattus norvegicus, UniProt P97612); test = probe labelling, inhibitor, competitive ABPP with azido-FP probe; test system = rat brain membrane fraction; setting = 1 µM; quantity = inhibition; result = 74.2%
Structure (SMILES) = C[C@H]1CN(c2n[nH]c3nc(N[C@H]4CC[C@H](NS(=O)(=O)CCC(F)(F)F)CC4)ncc23)CCO1; target or system = PRKAR2B (Homo sapiens, UniProt P31323); test = inhibitor, Kinobeads competition profiling; setting = 0.032 µM; how to read = baseline: vehicle; quantity = relative abundance; result = 1.01
Structure (SMILES) = COc1ccc(N2C(=O)N(c3c(C)cccc3Cl)Cc3cnc(Nc4ccc(C5CCN(C)CC5)cc4OC)nc32)nc1; target or system = MAP3K10 (Homo sapiens, UniProt Q02779); test = kinase activity, inhibitor; setting = 0.5 µM, MLK2; quantity = inhibition; result = -2%
Structure (SMILES) = [2H]c1c([2H])c([C@]2([2H])CCCN2C(=O)C(C)(C)Oc2ccc3cn[nH]c3c2)c([2H])c([2H])c1C([2H])([2H])[2H]; target or system = MAP4K1 (Homo sapiens, UniProt Q92918); test = KINOMEscan; setting = 1 µM; how to read = baseline: DMSO control; quantity = remaining binding; result = 95%
Structure (SMILES) = CCCCN1CCC(COC(=O)c2ccc(N)c(O[11CH3])c2)CC1; test = PET SRTM; test system = rhesus monkey, midbrain; setting = baseline, unit not given; how to read = baseline: cerebellum; quantity = BPND; result = 0.23 ± 0.06
Structure (SMILES) = O=C(Nc1cccnn1)N1CCC(=Cc2cccc(Oc3ccc(C(F)(F)F)cn3)c2)CC1; target or system = CAMK2D (Homo sapiens, UniProt Q13557); test = enzyme activity, inhibitor; setting = 50 µM, together with: autocamtide-2; quantity = inhibition; result = 22%
Structure (SMILES) = CC[C@H](C)[C@H](NC(=O)CNC(=O)[C@@H](N)CCCCN)C(=O)N[C@@H](CC(C)C)C(=O)N[C@@H](CCCCN)C(=O)N[C@@H](CCCNC(=N)N)C(=O)N[C@@H](CCC(=O)O)C(=O)N[C@@H](CCCCN)C(=O)N[C@@H](CCCNC(=N)N)C(=O)N[C@@H](CC(C)C)C(=O)N[C@@H](CCCNC(=N)N)C(=O)N[C@@H](CCCNC(=N)N)C(=O)N[C@@H](CCCCN)C(=O)N[C@@H](CC(N)=O)C(=O)N[C@H](C(=O)N[C@@H](Cc1c[nH]cn1)C(=O)N[C@@H](Cc1c[nH]c2ccccc12)C(=O)N1CCC[C@H]1C(=O)N[C@@H](CCC(=O)O)C(=O)N[C@@H](CCC(=O)O)C(=O)NCC(=O)N[C@@H](CCCCN)C(=O)N[C@@H](CC(C)C)C(=O)N[C@@H](CCCNC(=N)N)C(=O)N[C@@H](CCC(=O)O)C(=O)N[C@@H](Cc1ccc(O)cc1)C(=O)N[C@@H](Cc1ccccc1)C(=O)N[C@@H](Cc1ccc(O)cc1)C(=O)N[C@@H](Cc1ccccc1)C(=O)N[C@@H](CCC(=O)O)C(=O)N[C@@H](CC(C)C)C(=O)N[C@@H](CC(=O)O)C(=O)N[C@@H](CCC(=O)O)C(=O)N[C@@H](C)C(=O)N[C@@H](CCC(=O)O)C(=O)N[C@@H](CCCNC(=N)N)C(=O)N[C@H](C(=O)N[C@@H](CC(N)=O)C(=O)N[C@H](C(=O)O)C(C)C)C(C)C)C(C)C; target or system = HeLa and HEK-293T cells; test = phosphatase bead binding, competitive inhibitor, PIB pulldown iBAQ LC-MS/MS, refers to: PPP5C; setting = concentration not given; how to read = baseline: untreated control; quantity = log2 fold change; result = 0.0656
Structure (SMILES) = CN1CCN(c2cc(-c3ccncc3)c(-c3ccc4ccccc4c3)nn2)CC1; target or system = SUCNR1 (Homo sapiens, UniProt Q9BXA5); test = agonist, FLIPR; setting = 12.5 µM; quantity = activation; result = 1.6%
Structure (SMILES) = CCCCCCCC[C@H]1O[C@H]1C/C=C/C=C/[C@H](O)CC(=O)NC1=C[C@](C)(CC)OC1=O; target or system = Na(+)-translocating NADH-quinone reductase subunit B, whole Na+-NQR complex (nqrB, Vibrio cholerae serotype O1, UniProt Q9KPS2); test = isothermal titration calorimetry; setting = 20 °C, 50 µM; quantity = −TΔS; result = 15 kcal/mol
Structure (SMILES) = CC[C@H](C)[C@H](NC(=O)[C@@H](N)CCCCN)C(=O)N[C@@H](Cc1ccccc1)C(=O)N1CCC[C@H]1C(=O)N[C@H](C(=O)N1CCC[C@H]1C(=O)N[C@@H](CC(C)C)C(=O)N[C@@H](CCCCN)C(=O)N[C@@H](Cc1ccccc1)C(=O)O)C(C)C; target or system = HLA class I histocompatibility antigen, A alpha chain, allele A*02:01 (Homo sapiens, UniProt P04439); test = binding; quantity = IC50; result = 4.23 µM
Structure (SMILES) = CC[C@H](C)[C@H](NC(=O)CNC(=O)[C@@H](N)CCCCN)C(=O)N[C@@H](CC(C)C)C(=O)N[C@@H](CCCCN)C(=O)N[C@@H](CCCNC(=N)N)C(=O)N[C@@H](CCC(=O)O)C(=O)N[C@@H](CCCCN)C(=O)N[C@@H](CCCNC(=N)N)C(=O)N[C@@H](CC(C)C)C(=O)N[C@@H](CCCNC(=N)N)C(=O)N[C@@H](CCCNC(=N)N)C(=O)N[C@@H](CCCCN)C(=O)N[C@@H](CC(N)=O)C(=O)N[C@H](C(=O)N[C@@H](Cc1c[nH]cn1)C(=O)N[C@@H](Cc1c[nH]c2ccccc12)C(=O)N1CCC[C@H]1C(=O)N[C@@H](CCC(=O)O)C(=O)N[C@@H](CCC(=O)O)C(=O)NCC(=O)N[C@@H](CCCCN)C(=O)N[C@@H](CC(C)C)C(=O)N[C@@H](CCCNC(=N)N)C(=O)N[C@@H](CCC(=O)O)C(=O)N[C@@H](Cc1ccccc1)C(=O)N[C@@H](Cc1ccccc1)C(=O)N[C@@H](Cc1ccccc1)C(=O)N[C@@H](Cc1ccccc1)C(=O)N[C@@H](CCC(=O)O)C(=O)N[C@@H](CC(C)C)C(=O)N[C@@H](CC(=O)O)C(=O)N[C@@H](CCC(=O)O)C(=O)N[C@@H](C)C(=O)N[C@@H](CCC(=O)O)C(=O)N[C@@H](CCCNC(=N)N)C(=O)N[C@H](C(=O)N[C@@H](CC(N)=O)C(=O)N[C@H](C(=O)O)C(C)C)C(C)C)C(C)C; target or system = HeLa and HEK-293T cells; test = phosphatase bead binding, competitive inhibitor, PIB pulldown iBAQ LC-MS/MS, refers to: PPP4R1; setting = concentration not given; how to read = baseline: untreated control; quantity = log2 fold change; result = -0.15
Structure (SMILES) = COc1cc2c(Oc3ccc4[nH]c(C)cc4c3F)ccnc2cc1OCC1(N)CC1; test system = paediatric refractory sarcoma patients; setting = 10 mg; quantity = Cholesterol elevation incidence; result = 25%
Structure (SMILES) = CC[C@H](C)[C@H](NC(=O)[C@@H]1CCCN1C(=O)[C@H](CCCCN)NC(=O)[C@@H]1CCCN1C(=O)[C@H](CCSC)NC(=O)[C@H](CCC(N)=O)NC(=O)[C@@H](N)Cc1ccc(O)cc1)C(=O)N[C@H](C(=O)N[C@@H](Cc1ccccc1)C(=O)O)[C@@H](C)O; target or system = HLA class I histocompatibility antigen, A alpha chain, allele A*24:02 (Homo sapiens, UniProt P04439); test = binding; quantity = IC50; result = 1.77 µM
Structure (SMILES) = Oc1ccc2c3c1O[C@H]1[C@@H](O)CC[C@@]4(O)[C@@H](C2)N(CC2CCC2)CC[C@]314; target or system = G-protein coupled receptor 182 (GPR182, Homo sapiens, UniProt O15218); test = β-arrestin recruitment, TANGO luminescence, refers to: GPR182; setting = concentration not given; how to read = baseline: basal luminescence; quantity = log2 fold change; result = 0.287
